Results from different studies.
Protocols differ between the studies behind these lines. Several values in a cell are separate wells, animals, samples, runs or records. ± marks the error that the study gave.

| Structure (SMILES) | assay | system | setting | how to read | quantity | value |
| --- | --- | --- | --- | --- | --- | --- |
| O=S(=O)(c1ccc(-c2ccc3nccc(Nc4ccncn4)c3c2)cc1)N1CCOCC1 | – | female BALB/c mice, plasma | intraperitoneal, 10 mg/kg, 8 h | – | plasma concentration | 1.07 ng/mL and 2.85 ng/mL and 2.56 ng/mL |
| O=C(CO)N[C@H]1[C@H]([C@H](O)[C@H](O)CO)O[C@](O)(C(=O)O)C[C@@H]1O | binding, equilibrium dialysis LC-MS | – | 5 µM, thermostabilized A2AR-BRIL construct | reference: no-protein control, direction not given | z-scored log2 fold change | 0.169 |
| Cc1ccc(CCC(=O)Nc2nnc(S(N)(=O)=O)s2)cc1 | – | BALB/c mice, plasma | oral, 20 mg/kg, 24 h | – | plasma concentration | not detected |
| Cc1cc2sc(N)nc2c2cccnc12 | LC-MS | BALB/c mice, female | intraperitoneal, 30 mg/kg, 24 h | – | plasma concentration | 10 ± 10 ng/mL |
| COc1cc(F)c([C@@H]2CNC(=O)[C@H]2NC(=O)Nc2ccccc2)c(F)c1 | – | C57BL/6 mice, LPS challenge, plasma | oral, 0.03 mg/kg, 1.5 h post dose | – | plasma concentration | 2 ± 1 nM |
| COc1cc2c(Nc3ccc(Cl)c(Cl)c3F)ncnc2cc1OC[C@@H]1C[C@@H]2CN(C)C[C@@H]2C1 | – | FVB Mdr1a/b(-/-)Bcrp1(-/-) triple knockout mice, both sexes, plasma | intraperitoneal infusion (osmotic pump), 10 mg/mL at 1 µL/h, 48 h | – | plasma concentration | 1220 ng/g |
| Cc1cn([C@@H]2O[C@H](CO)[C@@H](O)[C@H]2O)c(=O)[nH]c1=O | binding, equilibrium dialysis LC-MS | – | 5 µM, thermostabilized A2AR-BRIL construct | reference: no-protein control, direction not given | z-scored log2 fold change | 0.293 |
| NCc1cc2c(cc1F)C(=O)N(C1CCC(=O)NC1=O)C2 (centres unmarked) | – | CD-1 mice | intravenous, 1 mg/kg, 24 h | – | plasma concentration | not detected |
| CC[C@H](C)[C@H](NC(=O)[C@H](CCC(=O)O)NC(=O)[C@H](CO)NC(=O)[C@@H](NC(=O)[C@@H](N)CO)C(C)C)C(=O)N[C@@H](CCC(N)=O)C(=O)N[C@@H](CC(C)C)C(=O)N[C@@H](CCSC)C(=O)N[C@@H](Cc1cnc[nH]1)C(=O)N[C@@H](CC(N)=O)C(=O)N[C@@H](CC(C)C)C(=O)NCC(=O)N[C@@H](CCCCN)C(=O)N[C@@H](Cc1cnc[nH]1)C(=O)N[C@@H](CC(C)C)C(=O)N[C@@H](CC(N)=O)C(=O)N[C@@H](CO)C(=O)N[C@@H](CCSC)C(=O)N[C@@H](CCC(=O)O)C(=O)N[C@@H](CCCNC(=N)N)C(=O)N[C@H](C(=O)N[C@@H](CCC(=O)O)C(=O)N[C@@H](Cc1c[nH]c2ccccc12)C(=O)N[C@@H](CC(C)C)C(=O)N[C@@H](CCCNC(=N)N)C(=O)N[C@@H](CCCCN)C(=O)N[C@@H](CCCCN)C(=O)N[C@@H](CC(C)C)C(=O)N[C@@H](CCC(N)=O)C(=O)N[C@@H](CC(=O)O)C(=O)N[C@H](C(=O)N[C@@H](Cc1cnc[nH]1)C(=O)N[C@@H](CC(N)=O)C(=O)N[C@@H](Cc1ccccc1)C(N)=O)C(C)C)C(C)C | ELISA | female CD-1 mice, blood plasma | subcutaneous, 10 nmol/kg, 1 h | – | plasma concentration | 0.117 nM |
| COc1nc(-c2cc(C)c(N[C@@H](C)c3c(F)cc(F)cc3F)nn2)ccc1-n1cnc(C)c1 | – | C57BL/6J mice, male, plasma | oral, 10 mg/kg daily for 9 days, 4 h after last dose | – | plasma concentration | 2160 ng/mL |
| CC1(C)NC(=O)N(c2ccc(F)c(C(C)(F)F)c2)C1=O | – | male Swiss outbred mice, plasma | oral, 100 mg/kg, 24 h | – | plasma concentration | 32800 ± 324 ng/mL |
| O=C1CCC(N2Cc3cc(CO)c(F)cc3C2=O)C(=O)N1 (centres unmarked) | – | CD-1 mice | intravenous, 1 mg/kg, 24 h | – | plasma concentration | not detected |
| COc1nc(-c2cc(C)c(N[C@@H](C)c3cc(F)cc(F)c3)nn2)ccc1-n1cnc(C)c1 | – | C57BL/6J mice, male, plasma | oral, 25 mg/kg daily for 9 days, 4 h after last dose | – | plasma concentration | 13200 ng/mL |
| Cc1cc([C@@H](C)Nc2ccccc2C(=O)O)c2nc(N3CCC(F)(F)CC3)c(C#N)c(=O)n2c1 | – | NOD SCID mice, HCC1954 xenograft | oral, 300 mg/kg once daily, 1 h | – | plasma concentration | 432 ng/mL |
| O=Cc1cc2c(cc1F)C(=O)N(C1CCC(=O)NC1=O)C2 (centres unmarked) | – | CD-1 mice | intravenous, 1 mg/kg, 24 h | – | plasma concentration | not detected |
| CN(CCCNC(=O)c1cccc(C(=O)O)c1)CCCNC(=O)c1cc(NC(=O)c2cc(NC(=O)c3cc(NC(=O)c4cc(NC(=O)[C@H](N)CCNC(=O)c5cc(NC(=O)c6cc(NC(=O)c7nc(NC(=O)c8nccn8C)cn7C)cn6C)cn5C)cn4C)cn3C)cn2C)cn1C | HPLC | C57BL/6 mice | intraperitoneal, 120 nmol, 1.5 h | – | plasma concentration | 13000 to 14000 nM |
| O=[N+]([O-])c1ccc(-c2ccc(O)cc2)c2cccnc12 | – | male ICR mice, plasma | intravenous, 1 mg/kg, 0.0833 h | – | plasma concentration | 510 ng/mL |

For quick reference, copied from above:
| Structure (SMILES) | assay | system | setting | how to read | quantity | value |
| --- | --- | --- | --- | --- | --- | --- |
| O=C1CCC(N2Cc3cc(CO)c(F)cc3C2=O)C(=O)N1 (centres unmarked) | – | CD-1 mice | intravenous, 1 mg/kg, 24 h | – | plasma concentration | not detected |
| O=S(=O)(c1ccc(-c2ccc3nccc(Nc4ccncn4)c3c2)cc1)N1CCOCC1 | – | female BALB/c mice, plasma | intraperitoneal, 10 mg/kg, 8 h | – | plasma concentration | 1.07 ng/mL and 2.85 ng/mL and 2.56 ng/mL |
